# Measured values of several laboratories.
# Each line is one published result; not all experiments were run side by side. Values joined by “and” are separate records of one study, mostly repeats; a detail may differ.
# Sequence of UniProt P49116 (whole entry, looked up): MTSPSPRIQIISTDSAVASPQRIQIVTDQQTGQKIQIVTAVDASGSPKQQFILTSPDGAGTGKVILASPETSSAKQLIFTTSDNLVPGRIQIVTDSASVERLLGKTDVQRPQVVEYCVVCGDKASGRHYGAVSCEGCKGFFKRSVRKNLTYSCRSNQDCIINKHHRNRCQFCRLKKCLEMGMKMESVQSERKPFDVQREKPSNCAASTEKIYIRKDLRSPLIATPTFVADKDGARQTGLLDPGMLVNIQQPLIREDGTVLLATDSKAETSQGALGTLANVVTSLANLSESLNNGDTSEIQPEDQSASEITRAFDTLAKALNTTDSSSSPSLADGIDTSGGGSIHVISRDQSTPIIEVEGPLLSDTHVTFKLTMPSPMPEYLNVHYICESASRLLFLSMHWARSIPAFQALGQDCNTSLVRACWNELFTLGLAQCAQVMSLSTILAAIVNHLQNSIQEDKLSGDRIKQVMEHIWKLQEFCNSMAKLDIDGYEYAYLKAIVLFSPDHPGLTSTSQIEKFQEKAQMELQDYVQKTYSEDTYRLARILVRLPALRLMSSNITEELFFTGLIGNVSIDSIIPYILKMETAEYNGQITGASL
SMILES,target or system,test,system,conditions,scale,endpoint,value
Cc1cc(Nc2ccc(NC(=O)c3ccc(Nc4ccnc5ccccc45)cc3)cc2)nc(N)n1,OCI-Ly1,,,"1 µM, 120 h",,viability,8.61%
NC1(C(=O)N[C@@H](CCO)c2ccc(Cl)cc2)CCN(c2nc[nH]c3nccc2-3)CC1,,"LC-MS/MS, non-compartmental","human, plasma","360 mg, with: enzalutamide",,Tmax,2.1 h and 1 h and 2 h
O=C(NO)c1cccc(C(=O)NCCc2ccccc2)c1,OCI-Ly1,,,"0.5 µM, 120 h",,viability,172%
CCn1cc(C(=O)N2CCOCC2)c(=O)c2cc(NC3Cc4ccccc4C3)cnc21,,,"human male, fed, plasma","oral, 900 mg twice daily, day 1, tablet, median",,Tmax,2.5 h
O=C(O)CCC(=O)O.[2H]C([2H])([2H])Oc1cc(C)c2[nH]ccc2c1CN1CC[C@@H](C2CC2)C[C@H]1c1ccc(C(=O)O)cc1,,,"human, plasma","200 mg once daily, day 10, multiple ascending dose, median",,Tmax,2 h
C=CCn1c(=O)c2cnc(Nc3ccc(N4CCN(C)CC4)cc3)nc2n1-c1cccc(C(C)(C)O)n1,,,human,"oral, 150 mg twice daily, monotherapy lead-in, -5 days",median,Tmax,2 h
Cl.[2H]C([2H])([2H])CC(=O)c1cnc(NC(=O)C2CC2)cc1Nc1cccc(-c2ncn(C([2H])([2H])[2H])n2)c1OC,,median,human,"oral, 20 mg twice daily, day 14, fasted, tablet, multiple dose",,Tmax,2.06 h
CN1C(=O)[C@@H](NC(=O)c2nnc(Cc3ccccc3)[nH]2)COc2cccnc21,,,"healthy human, fasted, plasma","oral, 30 mg single dose, median",,Tmax,3.51 h
CO[C@H]1C[C@@H]2CC[C@@H](C)[C@@](O)(O2)C(=O)C(=O)N2CCCC[C@H]2C(=O)O[C@H]([C@H](C)C[C@@H]2CC[C@@H](OC(=O)NCCOCCOCCOCCOCCOCCOCCOCCOCCC(=O)N3CCc4cc(Cn5nc(-c6ccc7oc(N)nc7c6)c6c(N)ncnc65)ccc4C3)[C@H](OC)C2)C[C@@H](O)[C@H](C)/C=C(\C)[C@@H](O)[C@@H](OC)C(=O)[C@H](C)C[C@H](C)/C=C/C=C/C=C/1C,,,"human, plasma","intravenous, 12 mg, cycle 1 day 15, arithmetic mean",,Tmax,0.92 h
NCCCCCC(=O)O,"Nuclear receptor subfamily 2 group C member 2, ligand-binding domain (Homo sapiens, UniProt P49116)",SPR imaging,,,,Kd,3.73 nM
CCN1CCN(Cc2ccc(Nc3ncc(F)c(-c4cc(F)c5nc6n(c5c4)[C@H](C)CCC6)n3)nc2)CC1,,,"human, plasma","300 mg single dose, median",,Tmax,7.97 h

# For quick reference, copied from above:
SMILES,target or system,test,system,conditions,scale,endpoint,value
CCN1CCN(Cc2ccc(Nc3ncc(F)c(-c4cc(F)c5nc6n(c5c4)[C@H](C)CCC6)n3)nc2)CC1,,,"human, plasma","300 mg single dose, median",,Tmax,7.97 h
